Results gathered from unrelated publications.
Numbered parts are unrelated; each lists some results of a single study. Substitutions count along the parent as printed.

Block 1 — method: RNA Bind-n-Seq; form: RNA; matrix: in vitro; concentration: not given; setting: RNA with constant flanks, ends assumed; baseline: input RNA pool; reading: higher = stronger binding; endpoint: bound/input enrichment
Target: RING finger protein unkempt homolog, zinc fingers 1-6, GST-SBP tag (UNK, Homo sapiens, UniProt Q9C0B0, residues 30-357)
Constant ends, left off below: GGGAGUUCUACAGUCCGACGAUC … CAACAGAGGAUUGAGCAUCA
Construct (chain): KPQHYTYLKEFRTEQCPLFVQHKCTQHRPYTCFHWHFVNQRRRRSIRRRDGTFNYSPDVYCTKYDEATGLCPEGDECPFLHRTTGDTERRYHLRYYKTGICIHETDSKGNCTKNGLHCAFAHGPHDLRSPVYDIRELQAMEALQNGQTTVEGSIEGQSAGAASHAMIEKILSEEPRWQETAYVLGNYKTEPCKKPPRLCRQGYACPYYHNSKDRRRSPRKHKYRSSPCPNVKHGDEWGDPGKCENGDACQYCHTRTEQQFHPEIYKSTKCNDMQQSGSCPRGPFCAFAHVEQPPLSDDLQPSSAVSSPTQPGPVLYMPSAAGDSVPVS
CCGACGCGCGUCUGUGGAGAAGCGGCUUGGUCGGGGGUGGUCUCGUGGGGUCCUGCCUGUUCCGUCGCUUUCAGGGUUCUUGAGCCCCUUCACGACCGUCACCAUGGAAGUGUCACCAUU: 0.0592 ratio
GCUCUUGCCUGCAAGUUUAGCUUGUGUUAAGGCAUUUGGGGGGACCAUUUAACUUACUGCCCGUUUGGGAUGUCUUUGUGAGAGUAGGGUUGGCACCAAUGCAGUAUGGAAGGCUAGGAG: 0.349 ratio
GAAGAUGGGCCUCCAGAACUCCUGUUUAUUCAUGGAGGACACACUGCUAAGAUUUCAGAUUUCCGCUGGAACCCCAAUGAGCCUUGGGUCAUUUGCUCAGUGUCUGAGGAUAACAUCAUG: 0.141 ratio
UCAGAAGAGGUGCUGGGUCACUUUCCGUAUCCUGAUCCUUCCCAGUGGACAGAUGAAGAAUCCGGUAUCCCUCCUGAUGAUGAAGACUGAAGGUGUAGACUCAGCCUCACUCUGUACAAG: 0.105 ratio
AUCACCAUGUUGGAAGCAGCACUGGGACUUGAGCGAGCUCACAUGGGAAUGUUUACUGAAUCCGCUAUUCUAUACUCUAAAUUUAAGCCUCAGAAAAUGAGGGAGCACCUGGAGCUGUUC: 0.227 ratio

Block 2 — target: CCNF, cyclin fold, Cln2 fusion (human); method: yeast growth competition, sequencing; matrix: yeast; setting: strong parent motif; baseline: not given; reading: higher = stronger binding; endpoint: normalised enrichment score
Parent: RB1 docking peptide (human); PKPLKKLRFDIEG
PKPLAKARFDIEG [K5A L7A]: 0.336
PKPLKKNRFDIEG [L7N]: 0.82
PKSLKKLRFDIEG [P3S]: 1.49
PKPLKKLRFVIEG [D10V]: 2.41
PKPLKKLRFDIFG [E12F]: 1.86
PKPLKKLRFDIHG [E12H]: 1.26

Block 3 — method: RNA Bind-n-Seq; form: RNA; matrix: in vitro; concentration: 1 µM; setting: whole 134-nt RNA, ends assumed; added: 150 mM KCl; baseline: input library; reading: higher = stronger binding; endpoint: log2 enrichment
Target: Ras GTPase-activating protein-binding protein 1, C-terminal RGG region (G3BP1, Homo sapiens, UniProt Q13283)
Chain of UniProt Q13283 (whole entry, looked up): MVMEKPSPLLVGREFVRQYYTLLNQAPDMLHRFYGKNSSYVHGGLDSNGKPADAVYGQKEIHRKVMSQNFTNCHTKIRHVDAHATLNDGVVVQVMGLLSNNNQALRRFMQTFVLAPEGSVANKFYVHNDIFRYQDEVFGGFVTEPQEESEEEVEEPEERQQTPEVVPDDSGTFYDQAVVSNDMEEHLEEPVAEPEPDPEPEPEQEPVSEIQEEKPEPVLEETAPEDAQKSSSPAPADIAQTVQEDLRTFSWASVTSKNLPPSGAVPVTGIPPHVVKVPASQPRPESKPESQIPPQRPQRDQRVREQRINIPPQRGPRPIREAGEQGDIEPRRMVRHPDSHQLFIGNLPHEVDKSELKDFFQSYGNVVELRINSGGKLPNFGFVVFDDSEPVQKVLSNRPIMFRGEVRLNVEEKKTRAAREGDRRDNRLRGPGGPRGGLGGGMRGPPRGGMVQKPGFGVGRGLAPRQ
Constant ends, left off below: GGGAGUUCUACAGUCCGACGAUC … UGGAAUUCUCGGGUGUCAAGG
AAGUCCUGUGCUACACAUCGUAUGUACCGAAUCGGCCCCGGCCCCGGGCCCCGGGGAAAGUAUUAUGUUACGCCGUUCGGAUCUGCACUU: -2.08
UGGCCCUGGUGGCAUGCGGGGAGGAAGAGGUGGCCUCAUGGAUCGUGGUGGUCCCGGUGGAUUGUUCAGAGGUGGCCGUGGUGGAGACAG: 2.33
AGUCCUGUGCUACACAUCGUAUGUACCGAAUCGGGUUUUUGGGUUUUUGGUUUUUGGGAAAGUAUUAUGUUACGCCGUUCGGAUCUGCAC: -1.57
GUCCUGUGCUACACAUCGUAUGUACCGAAUCGGGGCCCCGGGGCCCCGGGCCCCGGGGAAAGUAUUAUGUUACGCCGUUCGGAUCUGCAC: -2.48
CCUGUGCUACACAUCGUAUGUACCGAAUCGGGGAAAAAGGGGUUUGGGGAAAAAAAGGGGAAAGUAUUAUGUUACGCCGUUCGGAUCUGC: 0.147

Mixed results
PhoQ, residues 284 288 289 292 302 303 TASMAF
fold induction (PhoP, residues 12 14 15 18 19 LYHSL (Escherichia coli, UniProt P23836); Sort-seq, measured: YFP reporter; E. coli; PhoQ-PhoP variant library, added: 10 µM Mg2+; baseline: high Mg2+ state, higher = stronger signaling): 18.1

A few entries again (block 2):
PKPLKKNRFDIEG [L7N]: 0.82
PKPLKKLRFDIHG [E12H]: 1.26
